Results gathered from unrelated publications.
Protocols differ between the studies behind these lines. Several values in a cell are separate wells, animals, samples, runs or records. ± marks the error that the study gave.

| SMILES | cell line | test | setting | how to read | measurement | result |
| --- | --- | --- | --- | --- | --- | --- |
| C#CCCCC(F)/C=C/C(=O)NC1(c2ccc(-c3nc4ccn5c(=O)[nH]nc5c4cc3-c3ccccc3)cc2)CCC1 (centres unmarked) | MDA-MB-468 | flow cytometry PI | EC60, 72 h |  | sub-G0 cells | 0.9% |
| CCCCCCc1cccc(C(O)CC(CO)NC(=O)CCCCCCCCCCNC(C)=O)c1 (centres unmarked) | HeLa | CERT activity, HPLC-MS/MS lipidomics, item: hexosylceramide 24:1 | 1 µM, 24 h, not cell-number normalised |  | hexosylceramide level | 12000 pmol/sample and 12400 pmol/sample and 13700 pmol/sample |
| CCN(C(=O)c1cc(F)ccc1Oc1nncnc1N1CCC2(C1)CN([C@H](CCCN(C)CCOC)C(C)C)C2)C(C)C | T24 | cell growth or viability | 7 days |  | GI50 | > 10 µM |
| O=C(C[Se]C(=O)c1ccc2ccccc2n1)Nc1cccc(C(F)(F)F)c1 | NCI60 colon subpanel | NCI60 five-dose screen |  |  | mean TGI | 11.3 µM |
| CCOc1cncc(-c2ccc(NC(=O)C3(c4ccnc(NS(=O)(=O)C5CC5)n4)CCOCC3)nc2)n1 | EFO-21 | cell proliferation, CellTiter-Glo | 72 h |  | IC50 | 10000 nM |
| O=S1(=O)CC2CCCCC2CS1 (centres unmarked) | MDA-MB-468 | MTT | 0.391 µM, 72 h |  | viability | 87.6% |
| O=C(O)C1OC(Oc2ccc(-c3oc4ccc(O)cc4c(=O)c3O)cc2)C(O)C(O)C1O (centres unmarked) | MDCKII-UGT1A1/MRP2 cells | glucuronide efflux, substrate |  |  | Jmax | 8.47 ± 0.33 pmol/mg/min |
| O=C(C[Se]C(=O)c1ccccc1Nc1cccc(C(F)(F)F)c1)Nc1cccc(C(F)(F)F)c1 | NCI60 colon subpanel | cell growth | 10 µM, 48 h, one-dose |  | mean growth percent | -63.4% |
| CC(=O)N[C@@H](Cc1c[nH]c2ccccc12)C(=O)N[C@@H](CCC(=O)O)C(=O)N[C@@H](C)C(=O)N[C@@H](CC(=O)O)C(=O)COC(=O)c1c(C)cccc1C | THP-1 cells expressing FKBP-caspase-11 | pyroptosis, inhibitor | concentration not given, added: B/B dimerizer |  | LDH release | 26.2% and 25.5% and 24.9% |
| C=CC(=O)N1[C@@H](c2ccc3c(c2)OCO3)c2[nH]c3ccccc3c2C[C@H]1C(=O)NC1CC1 | rat DRG neurons |  | 3.333 µM, 48 h, added: vincristine 40 nM |  | mean neuron degeneration | 42.1% |
| CCCCCCCCCCCCCCCC(=O)OCC(CSC[C@H](N)C(=O)N[C@@H](CO)C(=O)N[C@@H](CCCCN)C(=O)N[C@@H](CCCCN)C(=O)N[C@@H](CCCCN)C(=O)N[C@@H](CCCCN)C(=O)NCCCCCC(=O)N[C@@H](CCCCN)C(=O)N[C@@H](CC(C)C)C(=O)N[C@H](C(=O)N[C@@H](Cc1ccccc1)C(=O)N[C@@H](Cc1ccccc1)C(=O)N[C@@H](Cc1ccc2ccccc2c1)C(=O)O)C(C)C)OC(=O)CCCCCCCCCCCCCCC (some centres unmarked) | BV-2 | RNA-seq, item: Cd86 |  |  | gene expression | 53.2 FPKM and 57.9 FPKM and 57.3 FPKM |
| CNS(=O)(=O)Nc1nccc(Cc2c(C)c3ccc(Oc4ncccc4F)cc3oc2=O)c1F | SK-LU-1 | cell viability | 7 days |  | IC50 | 359 nM |
| O=C(NCc1cc(F)cc(F)c1)[C@@]1(O)CCN(c2ccc3[nH]ccc3c2)C1=O | CXF1103 | colony formation |  |  | IC50 | > 10000 nM |
| CN1CCCNC(=O)c2cccc(c2)C(=O)NCCCN(C)CCCNc2cccc3c2C(=O)c2cccc(c2C3=O)NCCC1 | SAS | RNA-Seq, item: RBMS1 mRNA | 1 µM, 6 h | reference: untreated cells | log2 fold change | -0.767 |
| O=C(Nc1nnc2c1c(-c1ccc(Cl)cc1)nc1sc(=Cc3ccco3)c(=O)n12)c1ccccc1 (mixture of isomers) | LOX IMVI | NCI60 SRB | 10 µM |  | growth percent | 42.5% |
| Cc1cc(C)nc(NC(=S)N2CCN(c3ccc(C(F)(F)F)cn3)CC2)c1 | MDA-MB-468 | isotope labelling | 10 µM, 24 h, added: U-13C-serine |  | M+1 dTMP pool | decreased |
| CCCC[C@H]1C(=O)N(C)[C@@H](CCCC)C(=O)N[C@@H](CCCCNC(=S)Nc2ccc(CN3CCN(CC(=O)O)CCN(CC(=O)O)CC3)cc2)C(=O)N[C@H](C(=O)NCC(N)=O)CSCC(=O)N[C@@H](Cc2ccc(O)cc2)C(=O)N(C)[C@@H](C)C(=O)N[C@@H](CC(N)=O)C(=O)N2CCC[C@H]2C(=O)N[C@@H](Cc2c[nH]cn2)C(=O)N[C@@H](CCC(=O)O)C(=O)N2C[C@H](O)C[C@H]2C(=O)N[C@@H](Cc2c[nH]c3ccccc23)C(=O)N[C@@H](CO)C(=O)N[C@@H](Cc2cn(CC(=O)O)c3ccccc23)C(=O)N1C [fluorine-18 labelled] | H226 | binding | concentration not given, 30 min, 4 °C | reference: added activity | cell-bound activity | 0.96 ± 0.05% |
| O=CCNCCOn1c(=O)n(OCCNCCO)c(=O)n(OCCNCCOn2c(=O)n(OCCNCCO)c(=O)n(OCCNCCO)c2=O)c1=O | A549 | cell growth or viability, MTT | 100 µg/mL, 72 h |  | viability | 34.2% |
| O=C(C[Se]C(=O)C12CC3CC(CC(C3)C1)C2)Nc1cccc(C(F)(F)F)c1 | NCI60 colon subpanel | cell growth | 10 µM, 48 h, one-dose |  | mean growth percent | 25.4% |

| SMILES | cell line | test | setting | how to read | measurement | result |
| --- | --- | --- | --- | --- | --- | --- |
| c1ccc2c(Cc3c(-c4c[nH]c5ccccc45)[nH]c4ccccc34)c[nH]c2c1 | human monocytes |  | 5 µM | reference: DMSO | IL-1β induction | increased |
| O=C(C[Se]C(=O)c1cc2ccccc2o1)Nc1cccc(C(F)(F)F)c1 | NCI60 colon subpanel | NCI60 five-dose screen |  |  | mean TGI | 7.28 µM |
| CO[C@@H]1[C@@H](OC(N)=O)[C@@H](O)[C@H](Oc2ccc3c(O)c(NC(=O)c4ccc(O)c(CC=C(C)C)c4)c(=O)oc3c2C)OC1(C)C | HCT-116 parental |  | 150 µM | reference: untreated | colony survival | 79.2% |
| Cc1ncsc1-c1ccc(C(C)NC(=O)C2CC(O)CN2C(=O)C(NC(=O)CCCCCCCCCCN2CCCC(Nc3ncc(Cl)c(Nc4ccccc4S(=O)(=O)C(C)C)n3)C2)C(C)(C)C)cc1 (centres unmarked) | 22Rv1 | RNA-seq, item: MNX1-AS1 | concentration not given | reference: DMSO | log2 fold change | -1.42 |
| CCn1nc(Cl)c2c1-c1cnc(N)c(c1)O[C@H](C)c1cc(F)ccc1-c1nn(C)cc1C2 | Ba/F3 EML4-ALK v1 | cell viability |  |  | Emax | 99.3% |
| Cc1ccc(-n2cc(CSc3nc4ccccc4n3Cc3cn(-c4ccc(C)cc4)nn3)nn2)cc1 | MDA-MB-231 | MTT | 7.81 ppm |  | cytotoxicity | 60.6% |
| CSC(=S)N/N=C(\C)c1ccc(Nc2nnc(-c3ccc(Cl)cc3)c3ccccc23)cc1 | MCF7 | cell growth or viability, MTT | 0.156 µM |  | cell death | 49.2% |
| CCN(CC)CCNC(=S)Nc1ccc2nc(N3CCN(CC)CC3)cc(C)c2c1 | U2OS HDR-GFP reporter | homology-directed repair, flow cytometry | 30 µM |  | GFP-positive cells | 5.18% |
| Cn1ncc2cc(-c3cncc(Cl)c3N3CCC4(CCNC4=O)CC3)ccc21 | LS174T | gene expression, microarray, item: G0S2 mRNA | concentration not given, 4 h | reference: untreated cells | log2 fold change | -1.06 |
| COC(=O)c1cc(NC2=NC(=O)C(=Cc3ccc(N(C)C)cc3)S2)ccc1OC(C)=O | MCF7 | GC-MS, item: L-Methionine | 1 µM | reference: DMSO | metabolite level | -0.26 fold change |
| Cc1ccncc1.[Cl-].[Cl-].[Ru+2].c1cc(-c2ccc3cccnc3n2)nc(-c2ccc3cccnc3n2)c1.c1ccc2cc3nc4c5cccnc5c5ncccc5c4nc3cc2c1 | SK-MEL-28 | photocytotoxicity | visible light 400-700 nm, 100 J/cm2, oxygen 18.5% |  | EC50 | 595 ± 5 nM |
| CCN(CC)CC(=O)Nc1cccc(-n2cc(-c3ccc4ccc(-c5cn(-c6cccc(NC(=O)CN(CC)CC)c6)nn5)cc4c3)nn2)c1 | RCC4 | PCR angiogenesis array, item: THBS1 | 5 x IC50, 2 h, normoxia | reference: untreated | fold regulation | 1.04 fold |
| COc1ccccc1-c1ccncc1C(=O)Nc1nnc(OCc2ccc(Cl)cc2)s1 | MDA-MB-436 BRCA1-mutant |  | 0.75 µM | reference: vehicle control | colony survival | 57.1% and 53.2% and 51.9% |
| CNC(=O)CCN(Cc1ccc(C(F)F)cc1)C(=O)c1cc2c(OC)ccc(-c3ccc(=O)n(C)c3)c2s1 | murine AML cells | BRD4 chromatin occupancy, ChIP-seq, item: BRD4 at Cd47 locus | concentration not given, chr16:49789842-49810190 | reference: DMSO, higher = more occupancy | BRD4 ChIP-seq tag count | 157 a.u. |
| COC(=O)c1cc(NC2=NC(=O)C(=Cc3ccc(C)cc3)S2)ccc1OC(C)=O | MCF7 | GC-MS, item: L-Glutamic acid | 1 µM | reference: DMSO | metabolite level | -0.44 fold change |
| CC(C)c1ccc(N(C)c2ccc3c(c2)OCC[C@H]3CNc2cnccc2C(=O)O)cc1 | BFTC-905 | cell viability, CellTiter-Glo | 7 days |  | IC50 | 9.91 nM |
| NC(Cc1ccccc1)C(=O)N1CC(=Cc2ccc(Cl)c(Cl)c2)C(=O)C(=Cc2ccc(Cl)c(Cl)c2)C1 (centres unmarked) | BRD4-HiBiT cells | BRD4 degradation rescue, inhibitor | 4 h, added: dBET6 500 nM |  | EC50 | 1970 nM |
| COc1cccc(OC)c1-c1cc(C(=O)NC2(C(=O)O)C3CC4CC(C3)CC2C4)nn1-c1ccc(C(=O)NCCNC(=O)[C@H](CCCCNC(=O)[C@H](CC(C)C)NC(=O)C2OC2C(=O)O)NC(=O)CN2CCN(CC(=O)[O-])CCN(CC(=O)[O-])CCN(CC(=O)[O-])CC2)cc1C(C)C.[177Lu+3] (mixture of isomers) | HT-29 |  | concentration not given, 120 min | reference: added activity | surface-bound fraction | 1.63 ± 0.26% |
| O=C(O)C1OC(Oc2ccc3oc(-c4ccc(O)cc4)c(O)c(=O)c3c2)C(O)C(O)C1O (centres unmarked) | MDCKII-UGT1A1/MRP2 cells | glucuronide efflux, substrate |  |  | Jmax | 2.7 ± 0.27 pmol/mg/min |

Excerpt of the above:
| SMILES | cell line | test | setting | how to read | measurement | result |
| --- | --- | --- | --- | --- | --- | --- |
| Cc1ccc(-n2cc(CSc3nc4ccccc4n3Cc3cn(-c4ccc(C)cc4)nn3)nn2)cc1 | MDA-MB-231 | MTT | 7.81 ppm |  | cytotoxicity | 60.6% |
| COc1cccc(OC)c1-c1cc(C(=O)NC2(C(=O)O)C3CC4CC(C3)CC2C4)nn1-c1ccc(C(=O)NCCNC(=O)[C@H](CCCCNC(=O)[C@H](CC(C)C)NC(=O)C2OC2C(=O)O)NC(=O)CN2CCN(CC(=O)[O-])CCN(CC(=O)[O-])CCN(CC(=O)[O-])CC2)cc1C(C)C.[177Lu+3] (mixture of isomers) | HT-29 |  | concentration not given, 120 min | reference: added activity | surface-bound fraction | 1.63 ± 0.26% |
| CC(=O)N[C@@H](Cc1c[nH]c2ccccc12)C(=O)N[C@@H](CCC(=O)O)C(=O)N[C@@H](C)C(=O)N[C@@H](CC(=O)O)C(=O)COC(=O)c1c(C)cccc1C | THP-1 cells expressing FKBP-caspase-11 | pyroptosis, inhibitor | concentration not given, added: B/B dimerizer |  | LDH release | 26.2% and 25.5% and 24.9% |
